# Earlier results, collected from citations in different studies.
# ± marks the error that the study gave.
Structure (SMILES),target or system,test,test system,conditions,scale,measurement,result
C[C@@]12CC=C3c4ccc(O)cc4CC[C@@H]3[C@H]1CC[C@H]2O,HT-22,cell protection,,with: glutamate 20 mM,,EC50,851 nM
CC(=O)c1cccc(N[C@H]2[C@H](N)[C@@](NC(=O)N(C)C)([C@H](C)O)[C@@](C)(O)[C@@]2(O)COC(=O)c2c(C)cccc2O)c1,SNB-19,,,,,GI50,< 100 nM
O=P(O)(O)OC[C@H]1O[C@H](OP(=O)(O)OP(=O)(O)O)[C@H](O)[C@@H]1O,HGPRT Trypanosoma cruzi,"substrate, measured: GMP",,20 to 215 µM,,kcat,32 s⁻¹
Cc1cc([C@H](C)Nc2ccccc2)c2oc(N3CCOCC3)cc(=O)c2c1,ATR,"kinase activity, inhibitor",,with: 10 µM ATP,,IC50,> 100000 nM
N=C(N)c1ccc(OCCCCCOc2ccc(C(=N)N)cc2)cc1,Trypanosoma brucei gambiense,cell growth,IL1922,,,IC50,14 ± 3.1 nM
CC(=O)O[C@H]1Cc2ccccc2N(C(N)=O)c2ccccc21,,,mouse pilocarpine chronic epilepsy,"p.o., 300 mg/kg once daily, 6 weeks",baseline: vehicle,epileptiform discharge duration decrease,74%
NCCCC(N)(C(=O)O)C(F)F (stereo not drawn),Trypanosoma brucei gambiense,cell growth,IL1922,,,IC50,36700 ± 12900 nM
C[C@]12CC[C@@H]3c4ccc(O)cc4CC[C@H]3[C@@H]1CCC2=O,HT-22,cell protection,,with: glutamate 10 mM,,EC50,3030 nM
Oc1cccc(-c2nc(N3CCOCC3)c3oc4ncccc4c3n2)c1,PI4KIIα,"enzyme activity, inhibitor",,with: 10 µM ATP,,IC50,> 100000 nM
Cc1c(O)c(C23CC4CC(CC(C4)C2)C3)cc2c1CC[C@@H]1[C@@H]2CC[C@]2(C)C(=O)CC[C@@H]12,HT-22,cell protection,,with: glutamate 10 mM,,EC50,12 nM
Cc1ccc(C(=O)Nc2ccc(S(=O)(=O)O)c3cc(S(=O)(=O)O)cc(S(=O)(=O)O)c23)cc1NC(=O)c1cccc(NC(=O)Nc2cccc(C(=O)Nc3cc(C(=O)Nc4ccc(S(=O)(=O)O)c5cc(S(=O)(=O)O)cc(S(=O)(=O)O)c45)ccc3C)c2)c1,Trypanosoma brucei gambiense,cell growth,IL1922,,,IC50,64 ± 1.8 nM
CCC(C)c1c(O)ccc2c1CC[C@@H]1[C@@H]2CC[C@]2(C)C(=O)CC[C@@H]12 (stereo partly drawn),HT-22,cell protection,,with: iodoacetic acid 40 µM,,EC50,828 nM
Cc1cc(C(C)Nc2ccccc2)c2oc(-c3ccncc3)cc(=O)c2c1 (stereo not drawn),ATM,"kinase activity, inhibitor",,with: 10 µM ATP,,IC50,> 100000 nM
CC12CCC3c4ccc(O)cc4CCC3C1CCC2O (stereo not drawn),HT-22,cell protection,,with: glutamate 20 mM,,EC50,16200 nM
Cc1ccc([N+](=O)[O-])cc1S(=O)(=O)N(C)/N=C/c1cnc2ccc(Br)cn12,PI4KIIIα,"enzyme activity, inhibitor",,with: 10 µM ATP,,IC50,> 100000 nM

# Some of these lines once more:
Structure (SMILES),target or system,test,test system,conditions,scale,measurement,result
CC12CCC3c4ccc(O)cc4CCC3C1CCC2O (stereo not drawn),HT-22,cell protection,,with: glutamate 20 mM,,EC50,16200 nM
Cc1ccc([N+](=O)[O-])cc1S(=O)(=O)N(C)/N=C/c1cnc2ccc(Br)cn12,PI4KIIIα,"enzyme activity, inhibitor",,with: 10 µM ATP,,IC50,> 100000 nM
